Assay results of several laboratories.
A part holds a random share of what one study measured. Positions count from the first letter of the parent shown.

Series 1
Target: RNA binding protein fox-1 homolog 2, RRM domain, GST-SBP tag (RBFOX2, Homo sapiens, UniProt O43251-10, residues 100-194)
Method: RNA Bind-n-Seq
Molecule type: RNA
Matrix: in vitro
Tested at: 365 nM
Setting: natural RNA segment, single round, ends assumed
Relative to: no-protein control
Reading: higher = stronger binding
Target sequence (chain): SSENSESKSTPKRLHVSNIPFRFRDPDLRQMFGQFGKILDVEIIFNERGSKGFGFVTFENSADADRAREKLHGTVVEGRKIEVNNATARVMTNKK
| Strand | RBNS enrichment (R) |
| --- | --- |
| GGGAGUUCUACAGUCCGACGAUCCCCUUCACAUCAAGCUGGCCUUGCCCUCUCCCGGGACAGUGCCUGUUAACCUUCAUGUGACAAAACAAGGAUAUAUUCUUGCUGCUACGACAUGCUUUUGACUCAGUAUGUGGAAUUCUCGGGUGCCAA | 0.288 |
| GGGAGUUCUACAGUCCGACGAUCUUUAAAUUUGAAAACAUGUUUUAGGGAGUUUAGUUCUAGAAAUUUCUCUUAGAUUGAAGUGACAGAAUCUGAAAGAAAAGAAUAUGAUUGAGCUAUUUGUUUUCCUGAACUGGAAUUCUCGGGUGCCAA | 0.964 |
| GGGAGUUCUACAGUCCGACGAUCAAAAUUCAGAGAAUCUGUAAAGAACCCCCCACCCCUCAAAAAAGCCUAAGCACUUGCUGUUGUUCUUUUGUGAUUAUGGCUGUACAUUUAGUUGUCUUUCUAGUUAUGAAUGGAAUUCUCGGGUGCCAA | 0.255 |
| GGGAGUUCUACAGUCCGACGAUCAUUUAAUGAAGUAUUGCUAACUGAAGCCAGUUUGACUUGUGAGAGAGGUUAGACUGACAGAAGGUGUGCAGCCUGAUUUACAACCAAACCCUGAACCCUUUUGAAGAACAUGGAAUUCUCGGGUGCCAA | 0.714 |
| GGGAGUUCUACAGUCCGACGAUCGUAGACUUGCUGCUGCUGAAUCCUUUCUGGGGACUUUCUCAUCGGGCAGGGAGCAGAGGGCUUCUCGUUCAUGCACCCUUUGCCUGAACACCCAUGUAGCUGCUGUGUUGUGGAAUUCUCGGGUGCCAA | 0.284 |
| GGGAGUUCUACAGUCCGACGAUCGCCAGUGCACGGACCGAUUUGUAUCUGCUCAAUCUCUGUUGCACCUGAGGGGGAAAAAACAGUUCAACUGCUUACUCCCAAAACAGCCUUUUUGUAAUUUAUUUUUUAAGUGGAAUUCUCGGGUGCCAA | 1.05 |
| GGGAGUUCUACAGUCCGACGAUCCUCUGCUCCACUGUCUGCAGCCCAGAUCCUGUUGGGCCUGGCUGGUGUCUGGUAACCAUGGGCCUCCACUGACCCAUCCCUCUCUUUUAAACUGUCAGGUCAUUAUCAGGUGGAAUUCUCGGGUGCCAA | 0.444 |
| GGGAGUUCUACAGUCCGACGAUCGAGCUGUGUAUAGGUAGAAUAAAAAAUUCCUUUCAUAUCGUUAUUGUACAAAAAGUAAAGAGUAUCCUAAAGAUUGUAUUCAUUGUAAUCAAGUAAUGCAAUCAUCUCUCUGGAAUUCUCGGGUGCCAA | 0.414 |

Series 2
Target: CCNE2, cyclin fold, Cln2 fusion (human)
Method: yeast growth competition, sequencing
Matrix: yeast
Setting: strong parent motif
Relative to: not given
Reading: higher = stronger binding
Parent: WEE1 docking peptide (human); HKTFRKLRLFDTP
| Substitution | normalised enrichment score |
| --- | --- |
| K6V | 0.38 |
| L7A | -0.584 |
| R8W | 1.59 |
| L9P | 0.108 |
| L9D | -0.523 |
| K2S | 0.707 |
| K2T | 1.22 |
| T3F | 1.04 |
| P13V | 0.934 |
| L7E | 0.301 |
| L7H | -0.128 |
| K6T | 0.647 |
| H1D | 1.55 |
| D11T | 1.26 |
| F10S | 0.29 |
| F4R | 1.05 |
| L9I | 0.563 |
| K6L | -0.176 |
| P13K | 0.895 |
| D11W | 0.956 |
| H1K | 0.938 |
| K2Y | 0.941 |
| L9G | 0.528 |
| L9N | 0.776 |
| L9Q | 0.292 |

Series 3
Target: Fragile X messenger ribonucleoprotein 1, C-terminal low-complexity region (Fmr1, Mus musculus, UniProt P35922)
Method: RNA Bind-n-Seq
Molecule type: RNA
Matrix: in vitro
Tested at: 200 nM
Setting: whole 134-nt RNA, ends assumed
With: 150 mM KCl
Relative to: input library
Reading: higher = stronger binding
| Strand | log2 enrichment |
| --- | --- |
| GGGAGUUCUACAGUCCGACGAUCUUUGUAGAGCAGCCCGACGGCCAUGGAGGCUGAAGAGACGAUGGAAUGCCUUCAGGAGUUCCCUGAACAUCAUAAAAUGAUCCUCGACCGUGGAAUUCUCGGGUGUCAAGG | -0.635 |
| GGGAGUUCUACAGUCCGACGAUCCCUCAAGUCCUGUGCUACACAUCGUAUGUACCGAAUCGGGAGGGAGGGUGGGAAAGUAUUAUGUUACGCCGUUCGGAUCUGCACUUCCAGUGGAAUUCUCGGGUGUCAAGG | 1.2 |
| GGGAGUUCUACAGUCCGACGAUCUCCUCAAGUCCUGUGCUACACAUCGUAUGUACCGAAUCGGUGGAAAGGAGGAAAGUAUUAUGUUACGCCGUUCGGAUCUGCACUUCCAGCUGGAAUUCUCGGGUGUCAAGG | -0.43 |
| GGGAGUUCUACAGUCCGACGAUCUCCUCAAGUCCUGUGCUACACAUCGUAUGUACCGAAUCGGUUUGGAGGUGGAAAGUAUUAUGUUACGCCGUUCGGAUCUGCACUUCCAGCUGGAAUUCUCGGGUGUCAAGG | -0.591 |
| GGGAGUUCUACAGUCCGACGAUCUCUCCACCUGCUGAGCUCCCCAGUUUGAGGCGGAGCACACGCCAAAAGACCACGGGCUCCUGUGCUAGUACCAGGUAAUUUGUUUUUUUUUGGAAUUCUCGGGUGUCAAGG | 0.44 |
| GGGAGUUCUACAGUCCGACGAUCGUCCUGUGCUACACAUCGUAUGUACCGAAUCGGCCCCCGGGCCCCCGGGGCCCCCGGGAAAGUAUUAUGUUACGCCGUUCGGAUCUGCACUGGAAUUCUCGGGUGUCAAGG | -0.544 |
| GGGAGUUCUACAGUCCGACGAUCGUCCUGUGCUACACAUCGUAUGUACCGAAUCAAAUUUUUUUAAAUUUUUAAACCCAAAAAAGUAUUAUGUUACGCCGUUCGGAUCUGCACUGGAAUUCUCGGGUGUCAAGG | 0.182 |
| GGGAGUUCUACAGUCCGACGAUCGUCCUGUGCUACACAUCGUAUGUACCGAAUCGGGAAAAAAAGGGAAAAAGGGAAAGGGAAAGUAUUAUGUUACGCCGUUCGGAUCUGCACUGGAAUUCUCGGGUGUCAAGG | -0.361 |
| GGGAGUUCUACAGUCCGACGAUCCACAGACAACACGCACCCACACAGACACAGAGGGAAGGGGUUGGGAUGGGGACAGGGUGCACAGCAGGGCGGGGUAGGACCCCAGCCAAAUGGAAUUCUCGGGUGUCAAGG | 1.3 |

Series 4
Target: ABI1, truncated, D143A, DHFR fusion (Arabidopsis thaliana)
Method: DHFR PCA, deep sequencing
Matrix: yeast
Setting: methotrexate growth selection, single substitutions
With: (+)-ABA 0.39 µM
Relative to: wild-type fitted maximum
Reading: higher = stronger binding
Parent: PYL1, truncated, DHFR fusion (Arabidopsis thaliana); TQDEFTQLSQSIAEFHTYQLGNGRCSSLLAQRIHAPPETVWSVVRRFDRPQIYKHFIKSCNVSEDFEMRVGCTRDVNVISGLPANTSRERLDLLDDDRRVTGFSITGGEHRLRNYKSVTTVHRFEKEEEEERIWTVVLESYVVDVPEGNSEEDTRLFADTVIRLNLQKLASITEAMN; partner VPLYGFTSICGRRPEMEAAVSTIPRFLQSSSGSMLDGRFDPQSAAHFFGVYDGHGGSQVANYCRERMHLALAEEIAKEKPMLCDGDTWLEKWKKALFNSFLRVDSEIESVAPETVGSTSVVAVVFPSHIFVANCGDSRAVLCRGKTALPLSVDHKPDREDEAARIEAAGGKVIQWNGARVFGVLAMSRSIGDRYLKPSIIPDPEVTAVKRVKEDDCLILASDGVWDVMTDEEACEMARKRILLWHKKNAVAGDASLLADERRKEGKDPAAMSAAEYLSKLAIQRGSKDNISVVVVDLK
| Substitution | relative binding score [%] |
| --- | --- |
| S150Q | -0.119 |
| W41V | -6.7 |
| P50N | -9.79 |
| T173P | -6.11 |
| Y141L | -4.56 |
| D95W | -4.75 |
| V137M | -10.8 |
| T160Q | -12.5 |
| D144W | -9.44 |
| A158M | 4.78 |
| V137L | -4.08 |
| E125A | 55.2 |
| G21H | 38.8 |
| G81D | 7.67 |
| D95Y | 3.12 |
| L28D | 3.96 |
| Y18F | 1.88 |
| Q31F | -3.23 |
| R155H | 2.8 |
| F124W | 52.3 |
